{"data": "Experimental data collected from several papers", "note": "Every numbered part comes from another study and shows a few of its results, in no order. ± marks the error that the study gave."}
{"data": "Study 1", "organism": "SARS-CoV-2 Wuhan spike VSV pseudovirus", "effect on": "pseudovirus entry", "concentration": "concentration not given"}
{"SMILES": "Cc1cc(C(=O)N2CCCC(C(=O)Nc3cccc(-c4cc5ccccc5[nH]4)c3)C2)nn1C (stereo not shown)", "inhibition": "39%"}
{"SMILES": "C=CCNC(=O)C(CCSC)NC(=O)c1ccco1 (stereo not shown)", "inhibition": "46%"}
{"SMILES": "COC(=O)c1cc(CN2CCN(c3ncnc4ccccc34)CC2)cs1", "inhibition": "38%"}
{"SMILES": "CCOc1ccc(OCC)c(NS(=O)(=O)c2cc(-c3cc(C)no3)cs2)c1", "inhibition": "37%"}
{"SMILES": "COCC1CCCCN1c1nc2nonc2nc1NCc1cccs1 (stereo not shown)", "inhibition": "44%"}
{"SMILES": "COc1cccc(Oc2ccc(NC(=O)c3cc4cc(Br)ccc4o3)cn2)c1", "inhibition": "37%"}
{"SMILES": "COc1ccc(C(=O)N2CCCC2)c(OC2CCN(C3Cc4ccccc4C3)CC2)c1", "inhibition": "43%"}
{"SMILES": "O=C(NCCN1CCCCC1)C1CCc2ncc(-c3ccc(F)cc3)n2C1 (stereo not shown)", "inhibition": "40%"}
{"SMILES": "Cc1c[nH]c(-c2c(-c3ccccc3)ncn2Cc2ccccc2CN(C)C)n1", "inhibition": "42%"}
{"SMILES": "Cc1ccoc1C(=O)N1CCCn2nc(C(=O)Nc3ccccc3)cc2C1", "inhibition": "41%"}
{"SMILES": "Cc1noc(-c2ccc(S(=O)(=O)NCc3cccs3)o2)c1C", "inhibition": "43%"}
{"SMILES": "CCO[C@H]1COC[C@@H]1NC(=O)c1ccc2c(c1)nnn2C", "inhibition": "42%"}
{"SMILES": "CCCCOC(=O)C1=C(N)OC2=C(C(=O)CC(C)(C)C2)C12C(=O)Nc1ccc(Br)cc12 (stereo not shown)", "inhibition": "39%"}
{"SMILES": "Cc1noc(C)c1CCC(=O)NC1CC(=O)N(C2CCCCCC2)C1 (stereo not shown)", "inhibition": "40%"}
{"SMILES": "COc1cc(NC(=O)CCC2CCCN(C3CCSCC3)C2)cc(OC)c1 (stereo not shown)", "inhibition": "52%"}
{"SMILES": "COc1c(F)c(F)c(CN2CC=C(c3cnn(C)c3)CC2)c(F)c1F", "inhibition": "41%"}
{"SMILES": "OC(c1ccccn1)C1CCN(c2ncnc3[nH]ccc23)CC1 (stereo not shown)", "inhibition": "39%"}
{"SMILES": "CCOc1ccc(-c2c(C)nn3c(-c4ccccc4)c(C(=O)Nc4cccnc4)cnc23)cc1OCC", "inhibition": "37%"}
{"SMILES": "CC(Cc1ccsc1)Nc1ncnc2sccc12 (stereo not shown)", "inhibition": "41%"}
{"SMILES": "COc1cccc(Cn2ncc3ccc(C(=O)N4CCCC4)cc32)c1", "inhibition": "37%"}
{"data": "Single results of other studies", "rep nsp14": "Replicase polyprotein 1ab, nsp14 (rep, Severe acute respiratory syndrome coronavirus 2, UniProt P0DTD1)", "rep papain-like protease": "Replicase polyprotein 1ab, papain-like protease (rep, Severe acute respiratory syndrome coronavirus 2, UniProt P0DTD1)", "Matrix protein 2 V27A": "Matrix protein 2 (Influenza A virus, UniProt P0DOF5, V27A)", "rep nsp12 RdRp": "Replicase polyprotein 1ab, nsp12 RdRp (rep, Severe acute respiratory syndrome coronavirus 2, UniProt P0DTD1)"}
{"Molecule": "O=C(NC1CCN(c2ncnc3[nH]cnc23)CC1)c1cccc(S(=O)(=O)N2CCCC2)c1", "tested on": "rep nsp14", "test": "enzyme activity", "system": "SARS-CoV-2", "quantity": "IC50", "value": "4.11 µM"}
{"Molecule": "SLVAVTAAQSTIEEQAKTFLDKFA", "tested on": "SARS-CoV-2 spike RBD", "test": "peptide spot array", "system": "peptide", "conditions": "concentration not given", "how to read": "reference: wild-type ACE2 peptide", "quantity": "relative binding", "value": 3.37}
{"Molecule": "CC1CNc2c(cccc2S(=O)(=O)N[C@@H](CCCNC(=N)N)C(=O)N2CC[C@@H](C)C[C@@H]2C(=O)O)C1 (stereo partly shown)", "tested on": "rep papain-like protease", "conditions": "concentration not given, C111S mutant", "how to read": "reference: positive control", "quantity": "activity", "value": "16.9%"}
{"Molecule": "Nc1ncnc2c1ncn2[C@@H]1O[C@H](CO)[C@@H](O)[C@@H]1O", "tested on": "SARS-CoV-2", "test": "viral RNA copies", "system": "Vero C1008, Omicron BA.1", "conditions": "48 h", "quantity": "EC50", "value": "3.25 ± 0.11 µM"}
{"Molecule": "CCCCCCc1ccc(O)cc1O", "tested on": "rep papain-like protease", "conditions": "concentration not given, C111S mutant", "how to read": "reference: positive control", "quantity": "activity", "value": "10.4%"}
{"Molecule": "O=[N+]([O-])c1cn2c(n1)OC[C@@H](OCc1ccc(OC(F)(F)F)cc1)C2", "tested on": "Mycobacterium tuberculosis", "test": "MABA", "system": "Erdman M3 FbiC P367S mutant", "quantity": "IC50", "value": "> 50 µM"}
{"Molecule": "CC(N)C12CC3CC(CC1C3)C2 (stereo not shown)", "tested on": "Matrix protein 2 V27A", "conditions": "concentration not given, pH 5.5, cell-based", "quantity": "inhibition", "value": "0%"}
{"Molecule": "Cc1ccc(NC(=O)Nc2cc(C(F)(F)F)ccc2F)cc1Nc1ccc2c(c1)NC(=O)/C2=C\\c1ccc[nH]1", "tested on": "rep nsp12 RdRp", "test": "binding, biolayer interferometry", "conditions": "concentration not given", "quantity": "BLI response", "value": "0 nm"}
{"Molecule": "CCc1cc(=O)c2c(OCC(O)CN3CCOCC3)c3ccoc3c(OC)c2o1 (stereo not shown)", "tested on": "Mycobacterium tuberculosis", "test": "Alamar blue", "system": "22/22, SIRE and linezolid resistant", "conditions": "21 days, 37 °C", "quantity": "MIC", "value": "128 µg/mL"}
{"Molecule": "N#C[C@@]1(n2ccc(N)nc2=O)O[C@H](CO)[C@@H](O)[C@H]1O", "tested on": "SARS-CoV-2", "test": "viral replication", "system": "Vero, Beta", "quantity": "EC50", "value": "0.4 ± 0.02 µM"}
{"Molecule": "CC(C)Nc1nc2cc(Cl)c(Cl)cc2n1[C@H]1O[C@@H](CO)[C@H](O)[C@@H]1O", "tested on": "SARS-CoV-2", "test": "viral RNA copies", "system": "Vero C1008, Omicron BA.1", "conditions": "48 h", "quantity": "EC50", "value": "3.14 ± 0.15 µM"}
{"Molecule": "CCC(CC)[C@H](NC(C)=O)[C@@H]1[C@H](O)[C@@H](C(=O)O)C[C@H]1N=C(N)N", "tested on": "neuraminidase (Influenza B virus, UniProt A0A1S5RAG6, I221T)", "quantity": "IC50", "value": "0.0236 ± 0.0073 µM"}
{"Molecule": "Cc1ccc(NS(=O)(=O)c2cccc(C(=O)NC3CCN(c4ncnc5[nH]cnc45)CC3)c2)cc1", "tested on": "rep nsp14", "conditions": "0.1953 µM", "quantity": "inhibition", "value": "-2.11%"}
{"Molecule": "SLVAVTAAQSTIEEQAHTFLDKFN", "tested on": "SARS-CoV-2 spike RBD", "test": "peptide spot array", "system": "peptide", "conditions": "concentration not given", "how to read": "reference: wild-type ACE2 peptide", "quantity": "relative binding", "value": 3.18}
{"Molecule": "CCc1cc(=O)c2c(OCC(O)CNC(C)C)c3ccoc3c(OC)c2o1 (stereo not shown)", "tested on": "Mycobacterium tuberculosis", "test": "Alamar blue", "system": "22/22, SIRE and linezolid resistant", "conditions": "21 days, 37 °C", "quantity": "MIC", "value": "32 µg/mL"}
{"Molecule": "Cl.NCC12C3CCC4C3C3C(CCC31)C42", "tested on": "Matrix protein 2 V27A", "conditions": "concentration not given, pH 5.5, cell-based", "quantity": "inhibition", "value": "0%"}
{"Molecule": "CCCCCCC#Cc1cncc(-c2nnc(SCc3cc([N+](=O)[O-])cc([N+](=O)[O-])c3)n2C)c1", "tested on": "Mycobacterium tuberculosis", "system": "H37Rv mc2-6206 MmpL3 G253E", "quantity": "MIC80", "value": "2.2 µM"}
{"Molecule": "CC(C)(C)[C@H](NC(=O)C(F)(F)F)C(=O)N1C[C@H]2[C@@H]([C@H]1C(=O)N[C@H](C#N)C[C@@H]1CCNC1=O)C2(C)C", "tested on": "SARS-CoV-2", "test": "replicon replication", "system": "Mpro L50F E166V replicon", "quantity": "EC50", "value": "3.82 µM"}
{"Molecule": "CCC(CC)COC(=O)[C@H](C)N[P@](=O)(OC[C@H]1O[C@@](C#N)(c2ccc3c(N)ncnn23)[C@H](O)[C@@H]1O)Oc1ccccc1", "tested on": "SARS-CoV-2 Delta", "test": "viral replication", "system": "Calu-3", "quantity": "EC90", "value": "2 ± 0.5 µM"}
{"Molecule": "CC(C)=O.COC(=O)N[C@H](C(=O)N1CC2(CC2)C[C@H]1c1ncc(-c2ccc3c(c2)C(F)(F)c2cc(-c4ccc5nc([C@@H]6[C@H]7CC[C@H](C7)N6C(=O)[C@@H](NC(=O)OC)C(C)C)[nH]c5c4)ccc2-3)[nH]1)C(C)C", "tested on": "rep nsp12 RdRp", "test": "binding, biolayer interferometry", "conditions": "concentration not given", "quantity": "BLI response", "value": "0.03 nm"}
{"note": "For quick reference, copied from above (single results of other studies):"}
{"Molecule": "SLVAVTAAQSTIEEQAHTFLDKFN", "tested on": "SARS-CoV-2 spike RBD", "test": "peptide spot array", "system": "peptide", "conditions": "concentration not given", "how to read": "reference: wild-type ACE2 peptide", "quantity": "relative binding", "value": 3.18}
{"Molecule": "CCc1cc(=O)c2c(OCC(O)CNC(C)C)c3ccoc3c(OC)c2o1 (stereo not shown)", "tested on": "Mycobacterium tuberculosis", "test": "Alamar blue", "system": "22/22, SIRE and linezolid resistant", "conditions": "21 days, 37 °C", "quantity": "MIC", "value": "32 µg/mL"}
{"Molecule": "Cl.NCC12C3CCC4C3C3C(CCC31)C42", "tested on": "Matrix protein 2 V27A", "conditions": "concentration not given, pH 5.5, cell-based", "quantity": "inhibition", "value": "0%"}
